Results pooled from the literature.
Compare with care: the assays were run in different laboratories. “And” joins repeats or separate records; there may be more than shown. Numbers after ± are the reported error.
UniProt D0VWV4, sequence (whole entry, looked up): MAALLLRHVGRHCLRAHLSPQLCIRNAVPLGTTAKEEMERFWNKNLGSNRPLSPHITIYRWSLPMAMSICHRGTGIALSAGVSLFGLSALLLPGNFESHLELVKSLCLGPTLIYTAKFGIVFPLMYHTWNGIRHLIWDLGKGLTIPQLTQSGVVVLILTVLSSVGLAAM
UniProt Q8VEB4, sequence (whole entry, looked up): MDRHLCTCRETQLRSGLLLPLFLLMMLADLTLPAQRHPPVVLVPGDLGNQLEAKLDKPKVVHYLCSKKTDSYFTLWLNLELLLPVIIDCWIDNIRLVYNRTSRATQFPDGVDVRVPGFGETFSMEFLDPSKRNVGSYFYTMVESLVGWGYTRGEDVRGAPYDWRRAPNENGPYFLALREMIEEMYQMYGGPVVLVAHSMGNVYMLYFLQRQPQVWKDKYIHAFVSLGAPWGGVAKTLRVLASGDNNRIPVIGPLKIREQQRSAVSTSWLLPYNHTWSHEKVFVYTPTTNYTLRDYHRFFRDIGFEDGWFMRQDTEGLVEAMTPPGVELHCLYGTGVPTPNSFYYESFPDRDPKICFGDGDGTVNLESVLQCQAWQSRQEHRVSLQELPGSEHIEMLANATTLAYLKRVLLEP
UniProt A5GZW8, sequence (whole entry, looked up): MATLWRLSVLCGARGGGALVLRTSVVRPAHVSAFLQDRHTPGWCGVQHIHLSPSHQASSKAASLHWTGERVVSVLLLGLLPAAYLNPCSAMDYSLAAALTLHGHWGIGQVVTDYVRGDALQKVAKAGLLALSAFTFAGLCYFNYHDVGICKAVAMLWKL
UniProt Q007T0, sequence (whole entry, looked up): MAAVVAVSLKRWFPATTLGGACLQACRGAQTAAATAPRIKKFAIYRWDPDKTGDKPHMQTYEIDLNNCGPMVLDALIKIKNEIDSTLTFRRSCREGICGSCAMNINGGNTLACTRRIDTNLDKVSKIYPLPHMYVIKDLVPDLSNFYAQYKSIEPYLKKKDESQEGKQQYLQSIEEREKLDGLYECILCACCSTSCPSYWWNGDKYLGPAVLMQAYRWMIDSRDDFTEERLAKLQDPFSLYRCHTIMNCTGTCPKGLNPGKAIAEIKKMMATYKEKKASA
UniProt Q00987, sequence (whole entry, looked up): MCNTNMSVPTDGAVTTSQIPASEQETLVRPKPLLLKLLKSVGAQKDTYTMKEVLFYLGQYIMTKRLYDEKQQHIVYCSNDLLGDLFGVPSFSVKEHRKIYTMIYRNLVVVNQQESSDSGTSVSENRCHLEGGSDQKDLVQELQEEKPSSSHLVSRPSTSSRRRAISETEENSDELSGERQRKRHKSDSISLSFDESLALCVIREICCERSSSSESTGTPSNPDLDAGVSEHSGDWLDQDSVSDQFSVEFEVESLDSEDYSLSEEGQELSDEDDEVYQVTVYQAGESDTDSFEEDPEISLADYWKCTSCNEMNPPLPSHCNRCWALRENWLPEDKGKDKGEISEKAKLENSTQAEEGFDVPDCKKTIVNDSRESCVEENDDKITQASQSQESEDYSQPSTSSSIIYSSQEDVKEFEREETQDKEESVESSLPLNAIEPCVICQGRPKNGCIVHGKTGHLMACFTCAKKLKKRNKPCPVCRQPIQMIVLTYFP
UniProt Q9UM07, sequence (whole entry, looked up): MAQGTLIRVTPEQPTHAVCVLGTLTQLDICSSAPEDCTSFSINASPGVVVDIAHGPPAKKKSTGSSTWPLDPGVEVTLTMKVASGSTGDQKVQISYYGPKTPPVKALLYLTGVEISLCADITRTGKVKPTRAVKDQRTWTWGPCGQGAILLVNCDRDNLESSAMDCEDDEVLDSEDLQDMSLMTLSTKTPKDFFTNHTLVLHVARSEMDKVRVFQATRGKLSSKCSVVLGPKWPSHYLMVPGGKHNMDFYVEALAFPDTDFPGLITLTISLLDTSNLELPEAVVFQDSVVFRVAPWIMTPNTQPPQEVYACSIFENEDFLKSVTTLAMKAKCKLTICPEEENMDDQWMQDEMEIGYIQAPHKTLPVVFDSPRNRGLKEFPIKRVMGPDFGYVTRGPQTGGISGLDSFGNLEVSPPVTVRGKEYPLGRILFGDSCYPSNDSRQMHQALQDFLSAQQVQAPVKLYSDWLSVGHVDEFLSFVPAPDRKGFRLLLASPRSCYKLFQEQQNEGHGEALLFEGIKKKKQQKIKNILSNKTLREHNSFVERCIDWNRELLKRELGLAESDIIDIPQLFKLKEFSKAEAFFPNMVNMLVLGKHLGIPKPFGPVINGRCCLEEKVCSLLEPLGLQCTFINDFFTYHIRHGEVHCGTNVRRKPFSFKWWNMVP
UniProt Q6DWJ6, sequence (whole entry, looked up): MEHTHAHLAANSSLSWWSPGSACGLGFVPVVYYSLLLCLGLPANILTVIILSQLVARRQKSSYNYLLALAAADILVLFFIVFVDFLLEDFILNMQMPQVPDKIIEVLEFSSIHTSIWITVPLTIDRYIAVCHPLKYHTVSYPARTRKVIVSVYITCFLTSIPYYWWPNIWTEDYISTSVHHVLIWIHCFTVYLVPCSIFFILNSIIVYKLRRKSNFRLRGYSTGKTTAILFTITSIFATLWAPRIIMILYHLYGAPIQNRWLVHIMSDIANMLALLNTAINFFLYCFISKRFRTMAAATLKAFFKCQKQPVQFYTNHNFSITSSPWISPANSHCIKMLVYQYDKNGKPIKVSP
UniProt P25021, sequence (whole entry, looked up): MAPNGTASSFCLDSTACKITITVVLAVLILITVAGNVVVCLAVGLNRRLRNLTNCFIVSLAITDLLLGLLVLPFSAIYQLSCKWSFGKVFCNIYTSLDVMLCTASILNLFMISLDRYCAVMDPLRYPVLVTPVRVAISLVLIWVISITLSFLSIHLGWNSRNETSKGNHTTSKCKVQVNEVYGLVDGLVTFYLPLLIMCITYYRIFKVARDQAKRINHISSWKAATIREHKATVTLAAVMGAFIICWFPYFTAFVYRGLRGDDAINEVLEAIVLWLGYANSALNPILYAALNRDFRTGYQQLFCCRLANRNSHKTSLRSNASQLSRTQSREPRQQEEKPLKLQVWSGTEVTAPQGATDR
UniProt Q9Y5N1, sequence (whole entry, looked up): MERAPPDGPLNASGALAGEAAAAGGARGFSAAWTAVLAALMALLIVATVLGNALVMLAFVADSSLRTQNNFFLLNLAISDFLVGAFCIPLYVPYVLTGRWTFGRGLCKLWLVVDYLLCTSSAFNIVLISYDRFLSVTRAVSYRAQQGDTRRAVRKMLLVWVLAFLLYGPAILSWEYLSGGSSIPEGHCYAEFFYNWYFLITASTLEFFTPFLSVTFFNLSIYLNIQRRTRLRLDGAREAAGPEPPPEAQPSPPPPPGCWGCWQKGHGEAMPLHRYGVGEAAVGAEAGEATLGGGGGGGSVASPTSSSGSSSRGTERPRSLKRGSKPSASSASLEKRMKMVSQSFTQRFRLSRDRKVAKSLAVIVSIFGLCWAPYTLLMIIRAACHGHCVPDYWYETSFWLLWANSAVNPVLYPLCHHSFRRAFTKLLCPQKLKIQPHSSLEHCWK
UniProt Q86SG6, sequence (whole entry, looked up): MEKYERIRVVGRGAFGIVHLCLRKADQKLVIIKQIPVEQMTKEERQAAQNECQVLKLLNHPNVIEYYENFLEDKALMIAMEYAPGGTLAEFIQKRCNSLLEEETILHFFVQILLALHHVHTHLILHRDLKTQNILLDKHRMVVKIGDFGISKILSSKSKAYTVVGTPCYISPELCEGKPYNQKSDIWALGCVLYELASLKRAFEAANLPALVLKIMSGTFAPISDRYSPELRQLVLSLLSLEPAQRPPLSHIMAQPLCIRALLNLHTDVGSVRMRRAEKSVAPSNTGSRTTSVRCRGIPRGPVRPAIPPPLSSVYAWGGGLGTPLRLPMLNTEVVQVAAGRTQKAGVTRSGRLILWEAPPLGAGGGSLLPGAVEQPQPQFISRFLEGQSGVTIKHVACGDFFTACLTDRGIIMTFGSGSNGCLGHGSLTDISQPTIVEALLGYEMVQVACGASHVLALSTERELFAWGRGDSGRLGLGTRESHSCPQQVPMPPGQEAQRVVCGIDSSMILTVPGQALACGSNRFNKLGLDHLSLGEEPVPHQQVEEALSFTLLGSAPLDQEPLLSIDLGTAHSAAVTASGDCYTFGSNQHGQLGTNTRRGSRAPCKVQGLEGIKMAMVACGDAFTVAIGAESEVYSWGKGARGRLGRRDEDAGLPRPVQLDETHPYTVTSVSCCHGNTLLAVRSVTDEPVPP
UniProt Q7M759, sequence (whole entry, looked up): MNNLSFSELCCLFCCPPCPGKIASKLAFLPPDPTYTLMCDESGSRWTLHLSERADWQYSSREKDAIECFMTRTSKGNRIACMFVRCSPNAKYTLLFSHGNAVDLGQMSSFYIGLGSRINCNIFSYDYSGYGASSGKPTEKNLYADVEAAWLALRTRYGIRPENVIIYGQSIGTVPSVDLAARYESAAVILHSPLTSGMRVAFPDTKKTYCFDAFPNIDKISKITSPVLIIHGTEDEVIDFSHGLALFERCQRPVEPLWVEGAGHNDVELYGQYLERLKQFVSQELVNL
UniProt P47936, sequence (whole entry, looked up): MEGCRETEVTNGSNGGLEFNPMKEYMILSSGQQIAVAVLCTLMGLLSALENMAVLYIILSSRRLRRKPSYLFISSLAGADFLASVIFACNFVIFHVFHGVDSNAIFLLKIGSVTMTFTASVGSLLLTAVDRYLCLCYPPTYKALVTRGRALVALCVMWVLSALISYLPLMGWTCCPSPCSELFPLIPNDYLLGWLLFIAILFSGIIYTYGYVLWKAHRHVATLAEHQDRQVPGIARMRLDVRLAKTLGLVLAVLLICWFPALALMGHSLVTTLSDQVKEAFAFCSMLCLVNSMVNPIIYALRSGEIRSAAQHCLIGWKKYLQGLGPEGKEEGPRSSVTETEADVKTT

Compound | target or system | assay | system | conditions | scale | quantity | result
CCOC(=O)[C@@H]1Cc2c(cc([N+](=O)[O-])cc2[N+](=O)[O-])[C@H](O)[C@]12C(=O)Nc1ccc(Br)cc12 | Tyrosine-protein kinase ABL1, non-phosphorylated (ABL1, Homo sapiens, UniProt P00519) | binding, competition with immobilised ligand | – | 0.1 µM | – | remaining binding | 74%
O=C(CCCC[C@@H]1SC[C@@H]2NC(=O)N[C@@H]21)NCCCCCCCCN1[C@H]2[C@H](O)[C@@H](O)[C@H](O[C@@H]3OC[C@@H](O)[C@H](O)[C@H]3O)C[C@H]21 (stereo partly shown) | xlnC (Aspergillus niger, UniProt A2QFV7) | activity-based probe pulldown | Aspergillus niger, secretome | – | reference: total secretome | enrichment | 3.6 fold and 2.6 fold and 3 fold
COc1cc2c3cc1Oc1cc(ccc1O)CC1c4c(cc(OC)c(O)c4Oc4ccc(cc4)CC3N(C)CC2)CCN1C (stereo not shown) | Glideosome-associated protein 50 (GAP50, Plasmodium falciparum, UniProt Q8I2X3) | surface plasmon resonance | – | – | – | kon | 159 M⁻¹ s⁻¹
CON(C(=O)c1cn(C)nc1C(F)F)C(C)Cc1c(Cl)cc(Cl)cc1Cl (stereo not shown) | SDHD/SDHC/SDHB (Sus scrofa, UniProt A5GZW8+D0VWV4+Q007T0) | enzyme activity, inhibitor, DCIP reduction | pig | 0.6 µM, added: DCIP 40 µM | – | reaction velocity | 0.00527 µM/s and 0.00581 µM/s and 0.00521 µM/s
CC[C@H](C)[C@@H]1NC(=O)[C@H](Cc2ccc(O)cc2)NC(=O)[C@H](CCCNC(=N)N)NC(=O)[C@@H](NC(=O)[C@H](C)N)CSSC[C@@H](C(=O)N[C@@H](CO)C(=O)NCC(N)=O)NC(=O)[C@H](Cc2ccccc2)NC(=O)[C@H](Cc2c[nH]c3ccccc23)NC(=O)CNC(=O)[C@@H]2CSSC[C@H](NC1=O)C(=O)N[C@@H](CC(C)C)C(=O)N[C@@H](CO)C(=O)N[C@@H](Cc1ccccc1)C(=O)N[C@@H](CCCNC(=N)N)C(=O)N[C@@H](Cc1c[nH]cn1)C(=O)N2 | Beta-lactamase GES-5 (blaGES-5, Klebsiella pneumoniae, UniProt Q09HD0) | surface plasmon resonance | – | pH 7.4, 25 °C, 2% DMSO, 0.005% Tween-20, 1:1 model | – | dissociation rate constant | 0.00041 s⁻¹
CCOC(=O)[C@@](CC)(CCCSCCOCCOCCNc1ccc([N+](=O)[O-])c2nonc12)NC(=O)c1ccc(C2CC2)c(Cc2ccc(F)cc2)n1 | Cannabinoid receptor 2 (Cnr2, Mus musculus, UniProt P47936) | cAMP, agonist | – | – | – | Emax | 69%
O=C1NC(=O)c2c1c1cc(F)c[n+]3c1c1c2c2cc(O)ccc2[n]1[Ru-4]312([N]=C=S)[S+]3CC[S+]1CC[S+]2CC3 (stereo not shown) | Macrophage-stimulating protein receptor (MST1R, Homo sapiens, UniProt Q04912) | enzyme activity | – | 100 nM, human enzyme, added: 10 µM ATP | reference: untreated | remaining activity | 92%
CS(C)(=O)=Nc1ccc(-c2ccc(-c3nc4cc(O[C@@H]5CO[C@H]6[C@@H]5OC[C@H]6O)[nH]c4cc3F)cc2)cc1 | Histamine H3 receptor (HRH3, Homo sapiens, UniProt Q9Y5N1) | calcium signal, antagonist | – | 10 µM | – | inhibition | 3%
COc1ccccc1-c1n[nH]c2nc(NC3CCN(C(=O)Cc4ccc(F)cc4F)CC3)ncc12 | cdc2-related kinase 12 (Leishmania donovani, UniProt A0A3S7WQK2) | competition bead pull-down, item: LINJ.09.0270 | Leishmania donovani extract | 10 µM | reference: vehicle | remaining binding | 24%
Cc1n[nH]c(C)c1CCCOc1cc(OCCCCCCNCCOCCOCCn2cc(CNc3ccc(C(=O)O)cc3)nn2)cc(C(=O)O)c1 | Transthyretin (TTR, Homo sapiens, UniProt P02766) | fluorescent probe exclusion | human serum | 10 µM, 1 days, ratio 6:00:00 | – | probe binding remaining | 10.3%
CC(C)CC(O)(CC(C)C)c1cn(C(=O)N2CCCC2)nn1 | Lysosomal phospholipase A and acyltransferase (Pla2g15, Mus musculus, UniProt Q8VEB4) | probe labelling, inhibitor, item: Lypla3 | mouse, brain | i.p., 0.8 mg/kg, 4 h, single peptide | reference: treated over vehicle mice, lower = stronger inhibition | activity ratio-of-ratios | 1.92 and 1.36 and 2 and 1.73 and 1.99
O=C(O)c1ccc(-c2nc(-c3ccccc3Cl)c3sccn23)cc1 | nicotinic acetylcholine receptor alpha2 | radioligand binding | – | 10 µM | reference: control | specific binding | 96.2% and 97.3%
CC[C@H](C)[C@H](NC(=O)[C@H](CCCNC(=N)N)NC(=O)[C@H](CCCNC(=N)N)NC(=O)[C@H](CC(C)C)NC(=O)[C@H](Cc1ccccc1)NC(=O)CNC(=O)CNC(=O)[C@@H](N)Cc1ccc(O)cc1)C(=O)N[C@@H](CCCNC(=N)N)C(=O)N1CCC[C@H]1C(=O)N[C@@H](CCCCN)C(=O)N[C@@H](CC(C)C)C(=O)N[C@@H](CCCCN)C(=O)O | Probable G-protein coupled receptor 139 (GPR139, Homo sapiens, UniProt Q6DWJ6) | G protein activation, agonist, BRET, item: Gα14 | HEK-293T/17 | 40 µM | reference: GαoA response | Emax | 20.8% and 30.4%
CC(C)[C@H]1NC(=O)C[C@H]2/C=C/CCSSC[C@@H](NC1=O)C(=O)N[C@H](Cc1cccc3ccccc13)C(=O)NCC(=O)O2 | Serine/threonine-protein kinase WNK3 (WNK3, Homo sapiens, UniProt Q9BYP7) | enzyme activity, inhibitor | – | 10 µM | – | inhibition | -7%
N[C@H](C(=O)N1CCCC1)C1CCN(c2nccc3c(-c4ncc(Cl)cc4Cl)cccc23)CC1 | Protein-arginine deiminase type-4 (PADI4, Homo sapiens, UniProt Q9UM07) | enzyme activity | – | 0.03932 µM, low-affinity site, added: Ca2+ 0.25 mM | – | kcat | 0.405 s⁻¹ and 0.371 s⁻¹
C[C@]1(COC(=O)c2ccccc2O)[C@H](C(=O)O)N2C(=O)/C(=C/c3ccccn3)[C@H]2S1(=O)=O | Beta-lactamase (blaOXA-33, Acinetobacter baumannii, UniProt Q8RLA6) | inhibitor | – | – | – | kinact | 0.027 ± 0.002 s⁻¹
O=C1NC2(CC2)COc2ncc(F)cc2[C@H]2COCCN2c2ccn3ncc1c3n2 | – | – | Sprague-Dawley rat, female, blood | oral, 2.5 mg/kg/day, 4 weeks, end of recovery, subacute toxicity | – | mean corpuscular haemoglobin | 18.8 ± 0.7 pg
Cc1cc(-c2ccc3ccccc3c2)nnc1NCCN1CCN(C)CC1 | Histamine H2 receptor (HRH2, Homo sapiens, UniProt P25021) | antagonist | – | 10000 nM | reference: control | activity | 0%
C#CCCCCOc1ccc2c(c1)CCCN2C(=O)CCl | mRNA turnover protein 4 homolog (Homo sapiens, UniProt Q9UKD2) | mass spectrometry profiling, item: MRTO4 | H460 cell lysate | 100 µM over 10 µM, UniProt Q9UKD2 | reference: high over low concentration | reactivity ratio | 1.43
COCC1CCCCN1C(=O)n1cc(C(O)(c2ccccc2)c2ccccc2)nn1 (stereo not shown) | Alpha/beta hydrolase domain-containing protein 17B (Abhd17b, Mus musculus, UniProt Q7M759) | probe labelling, inhibitor, competitive ABPP-SILAC, item: Fam108b1 | mouse T cells | concentration not given, 4 h, protein level | reference: treated over DMSO cells, lower = stronger inhibition | SILAC activity ratio | 1.17
CN(C)[C@H]1C[C@@]23CC[C@@]4(O2)C(=CC[C@]2(C)[C@@H](c5ccc6ccncc6c5)CC[C@H]24)C=C3[C@@H](O)[C@@H]1O | Serine/threonine-protein kinase Nek8 (NEK8, Homo sapiens, UniProt Q86SG6) | ATP probe labelling, inhibitor, KiNativ profiling | – | 0.1 µM | – | inhibition | 10.4%
CC[C@H](C)[C@@H]1NC(=O)[C@H](CC(C)C)NC(=O)CNC(=O)[C@H](CCCNC(=N)N)NC(=O)[C@H](Cc2c[nH]c3ccccc23)NC(=O)[C@H](CCSC)NC(=O)[C@H](CO)NC(=O)[C@H](CCC(=O)O)NC(=O)[C@H](Cc2ccccc2)NC(=O)[C@H](CC(=O)O)NC(=O)[C@H]([C@@H](C)O)NC(=O)CNC(=O)[C@H](CCC(=O)O)NC(=O)[C@H]([C@@H](C)O)NC(=O)CNC(=O)[C@H](CC(=O)O)NC1=O | E3 ubiquitin-protein ligase Mdm2 (MDM2, Homo sapiens, UniProt Q00987) | MDM2-ligand binding, inhibitor, AlphaLISA competition | – | 6.25 µM, added: GST-tagged MDM2 ligand | lower = stronger inhibition | AlphaLISA signal | 1880 a.u. and 1580 a.u. and 1680 a.u.
C[C@H](NCc1ccc(-c2ccc(C(F)(F)F)cc2)cc1)C(N)=O | Mitogen-activated protein kinase kinase kinase 4 (MAP3K4, Homo sapiens, UniProt Q9Y6R4) | cell-free assay, competition with immobilised ligand | – | 1 µM | – | inhibition | 1%
O=C(N[C@@H]1c2ccccc2C[C@H]1N1CCCC1)c1ccc(-c2ccnc3[nH]ccc23)nc1 | Serine/threonine-protein kinase N1 (PKN1, Homo sapiens, UniProt Q16512) | binding, competition with immobilised ligand | – | 3 µM | – | remaining binding | 8.6%
CN(C)CCCSC(=S)N1CCN(C(=O)/C=C/c2coc3ccccc3c2=O)CC1 | Nucleoprotein (N, Tomato spotted wilt virus, UniProt P25999, R94A) | binding, microscale thermophoresis | – | 500 µM | dose series | MST response | 846 a.u.
